Results from different studies.
“And” joins repeats or separate records; there may be more than shown.
Sequence of UniProt Q9UKP6 (whole entry, looked up): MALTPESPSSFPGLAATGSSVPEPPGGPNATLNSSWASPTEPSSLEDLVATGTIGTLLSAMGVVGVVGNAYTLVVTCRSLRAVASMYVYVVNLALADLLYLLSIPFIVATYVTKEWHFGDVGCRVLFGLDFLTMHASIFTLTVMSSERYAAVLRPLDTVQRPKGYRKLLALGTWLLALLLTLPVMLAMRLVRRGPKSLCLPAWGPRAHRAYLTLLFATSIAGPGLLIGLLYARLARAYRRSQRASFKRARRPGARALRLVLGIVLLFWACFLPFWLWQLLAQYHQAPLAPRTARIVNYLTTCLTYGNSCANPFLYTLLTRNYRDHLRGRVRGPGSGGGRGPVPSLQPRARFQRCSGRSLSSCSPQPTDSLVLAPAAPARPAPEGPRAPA
Sequence of UniProt P54753 (whole entry, looked up): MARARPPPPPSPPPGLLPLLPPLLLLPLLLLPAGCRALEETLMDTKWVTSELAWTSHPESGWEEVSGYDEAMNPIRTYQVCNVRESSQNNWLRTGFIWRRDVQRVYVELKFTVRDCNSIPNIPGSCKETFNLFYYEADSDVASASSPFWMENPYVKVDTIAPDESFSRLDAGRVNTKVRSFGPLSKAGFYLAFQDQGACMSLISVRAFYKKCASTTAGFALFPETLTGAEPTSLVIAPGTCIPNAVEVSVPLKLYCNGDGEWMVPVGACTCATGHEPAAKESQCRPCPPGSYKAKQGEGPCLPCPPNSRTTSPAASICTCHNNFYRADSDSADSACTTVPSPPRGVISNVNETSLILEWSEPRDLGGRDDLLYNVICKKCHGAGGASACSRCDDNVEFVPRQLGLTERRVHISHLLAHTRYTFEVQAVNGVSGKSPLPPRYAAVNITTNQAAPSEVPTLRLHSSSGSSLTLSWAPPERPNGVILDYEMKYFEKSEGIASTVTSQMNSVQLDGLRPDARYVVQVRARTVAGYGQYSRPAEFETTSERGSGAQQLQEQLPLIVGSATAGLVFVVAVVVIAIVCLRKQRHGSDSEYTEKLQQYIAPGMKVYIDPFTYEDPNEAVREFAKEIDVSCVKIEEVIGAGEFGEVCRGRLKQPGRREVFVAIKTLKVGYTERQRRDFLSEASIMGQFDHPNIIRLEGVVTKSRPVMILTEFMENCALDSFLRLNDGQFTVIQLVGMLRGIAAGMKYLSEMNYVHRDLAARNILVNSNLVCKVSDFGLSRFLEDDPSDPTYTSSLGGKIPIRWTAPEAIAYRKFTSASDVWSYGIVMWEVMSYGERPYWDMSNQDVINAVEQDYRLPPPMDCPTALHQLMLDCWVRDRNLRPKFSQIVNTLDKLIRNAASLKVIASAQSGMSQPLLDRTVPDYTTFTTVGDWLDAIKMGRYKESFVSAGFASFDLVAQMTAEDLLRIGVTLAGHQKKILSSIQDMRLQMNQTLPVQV

Structure (SMILES)	tested on	assay	test system	setting	scale	measurement	value
Cc1ncsc1-c1ccc(C(C)NC(=O)C2CC(O)CN2C(=O)C(NC(=O)CCCCCCCCCCN2CCCC(Nc3ncc(Cl)c(Nc4ccccc4S(=O)(=O)C(C)C)n3)C2)C(C)(C)C)cc1 (stereo not drawn)	22Rv1	RNA-seq, item: ZNF497 mRNA		concentration not given	relative to: DMSO	log2 fold change	-1.47
CNS(=O)(=O)Nc1nccc(Cc2c(C)c3ccc(Oc4ncccc4F)cc3oc2=O)c1F	C-33-A	cell viability		7 days		IC50	250 nM
CNC(=O)C1CCCN(C(=O)C2CC3CCC2N3C(=O)[C@@H]2C[C@@H](O)CN2C(=O)NCc2cccc(Cl)c2F)C1 (mixture of isomers)	Cytochrome P450 2C9 (CYP2C9, Homo sapiens, UniProt P11712)	preincubation without NADPH	human	0.0686 µM	relative to: negative control	remaining activity	102% and 93% and 98.2%
C=C(NC(=O)c1csc(-c2nc3c(cc2O)-c2nc(cs2)C(=O)NC(C(C)O)C(=O)NC(=C(C)OC)c2nc(cs2)C(=O)NC2c4nc(cs4)C(=O)NC(COC(=O)c4c5c6c(cccc6n4O)COC(=O)C(OC4CC(C)(O)C(N(C)C)C(C)O4)C2OC5)c2nc-3cs2)n1)C(N)=O (stereo not drawn)	Streptococcus pneumoniae		-25, immunocompromised mice, lung infection	tid dosing		lung bacterial load at ED50	5.08 log CFU/g
C=CC(=O)N1[C@H](c2ccc3c(c2)OCO3)c2[nH]c3ccccc3c2C[C@@H]1C(=O)N1CCN(C)CC1	human cyclin E1 N112C-3xFLAG:CDK2	co-IP with TMT proteomics, item: cyclin E1		concentration not given	relative to: wild type DMSO	relative enrichment	100%
Nc1ncc(-c2cc(-c3cnn(CC(F)(F)F)c3)ncc2F)nc1C(=O)NC1CNCC(F)C1 (stereo not drawn)	AURKA	KINOMEscan		1 µM	relative to: DMSO control	remaining binding	78%
Cn1ncc2cc(-c3cncc(Cl)c3N3CCC4(CCNC4=O)CC3)ccc21	LS174T	gene expression, microarray, item: GBP2 mRNA		concentration not given, 24 h	relative to: untreated cells	log2 fold change	-1.45
COC1CN([C@H]2CC[C@H]([C@@]3(C)Oc4c(Cl)cc(C(=O)NCc5c(SC)cc(C)[nH]c5=O)c(C)c4O3)CC2)C1		RNA-seq, item: PKIB mouse homolog	mouse, HT-1376 xenograft, whole blood	dose not given	relative to: vehicle	log2 fold change	0.835
C=C1CC[C@H](OCCCNC(=O)CCOCCOCCOCCOCCOCCOCCOCCOCCOCCOCCOCCOCCOCCOCCOCCOCCOCCOCCOCCOCCOCCOCCOCCOCCOCCOCCOCCOCCOCCOCCOCCOCCOCCOCCOCCOCCNC(=O)CCN2C(=O)CC(SC[C@H](NC(=O)[C@H](Cc3ccccc3)NC(=O)[C@H](CC(N)=O)NC(=O)[C@H](Cc3c[nH]cn3)NC(=O)[C@@H](NC(=O)[C@H](CC(=O)O)NC(=O)[C@H](CCC(N)=O)NC(=O)[C@H](CC(C)C)NC(=O)[C@H](CCCCN)NC(=O)[C@H](CCCCN)NC(=O)[C@H](CCCNC(=N)N)NC(=O)[C@H](CC(C)C)NC(=O)[C@H](Cc3c[nH]c4ccccc34)NC(=O)[C@H](CCC(=O)O)NC(=O)[C@@H](NC(=O)[C@H](CCCNC(=N)N)NC(=O)[C@H](CCC(=O)O)NC(=O)[C@H](CCSC)NC(=O)[C@H](CO)NC(=O)[C@H](CC(N)=O)NC(=O)[C@H](CC(C)C)NC(=O)[C@H](Cc3c[nH]cn3)NC(=O)[C@H](CCCCN)NC(=O)CNC(=O)[C@H](CC(C)C)NC(=O)[C@H](CC(N)=O)NC(=O)[C@H](Cc3c[nH]cn3)NC(=O)[C@H](CCSC)NC(=O)[C@H](CC(C)C)NC(=O)[C@H](CCC(N)=O)NC(=O)[C@@H](NC(=O)[C@H](CCC(=O)O)NC(=O)[C@H](CO)NC(=O)[C@@H](NC(=O)[C@@H](N)CO)C(C)C)[C@@H](C)CC)C(C)C)C(C)C)C(=O)O)C2=O)C/C1=C/C=C1\CCC[C@]2(C)[C@@H]([C@H](C)CCCC(C)(C)O)CC[C@@H]12 (stereo partly drawn)			male cynomolgus monkey, plasma	subcutaneous, 0.07 mg/kg, single dose		AUC(0-t)	4850 ng·h/mL
c1ccc(-c2n[nH]cc2-c2ccnc3ccccc23)nc1	CKA2 (Candida albicans)	kinase binding, MIB/MS competition	Candida albicans lysate	10 µM	relative to: DMSO	log2 fold change	-0.06
COc1ccc2c(c1OC)C(=O)N(c1ccc(Cl)c(Cl)c1)C2	Uncharacterized protein (Trypanosoma brucei brucei, UniProt Q386Q8)	inhibitor, coupled colorimetric	Trypanosoma brucei			IC50	> 100000 nM
CN1CCCNC(=O)c2cccc(c2)C(=O)NCCCN(C)CCCNc2cccc3c2C(=O)c2cccc(c2C3=O)NCCC1	SAS	RNA-Seq, item: EXOSC9 mRNA		1 µM, 6 h	relative to: untreated cells	log2 fold change	-0.487
CC(C)[C@H](NC(=O)[C@@H]1CSSC(C)(C)[C@H](NC(=O)[C@@H](N)CC(=O)O)C(=O)N[C@@H](Cc2ccccc2)C(=O)N[C@H](Cc2c[nH]c3ccccc23)C(=O)N[C@@H](CCCN)C(=O)N[C@@H](Cc2ccc(O)cc2)C(=O)N1)C(=O)O	UTS2R (Homo sapiens, UniProt Q9UKP6)	inositol phosphate, agonist, TR-FRET				EC50	0.8 nM
C=CC(=O)Nc1cccc(Cn2ncc3cnc(Nc4cnn(CCOC)c4)nc32)c1	human JNK1	KINOMEscan		100 nM	relative to: control	binding	72%
Cc1nn(-c2cccc(N)c2)c(=O)c2cnc(Nc3ccc(N4CCNCC4)cc3)nc12	EPHB3 (Homo sapiens, UniProt P54753)	enzyme activity, inhibitor				IC50	> 10000 nM

Repeated from above:
Structure (SMILES)	tested on	assay	test system	setting	scale	measurement	value
C=CC(=O)Nc1cccc(Cn2ncc3cnc(Nc4cnn(CCOC)c4)nc32)c1	human JNK1	KINOMEscan		100 nM	relative to: control	binding	72%
Cc1nn(-c2cccc(N)c2)c(=O)c2cnc(Nc3ccc(N4CCNCC4)cc3)nc12	EPHB3 (Homo sapiens, UniProt P54753)	enzyme activity, inhibitor				IC50	> 10000 nM
